Measurements pooled from the literature.
Lines come from different studies, so protocols differ. Values joined by “and” are separate records of one study, mostly repeats; a detail may differ. Numbers after ± are the reported error.
Sequence of UniProt Q64663 (whole entry, unmodified, looked up): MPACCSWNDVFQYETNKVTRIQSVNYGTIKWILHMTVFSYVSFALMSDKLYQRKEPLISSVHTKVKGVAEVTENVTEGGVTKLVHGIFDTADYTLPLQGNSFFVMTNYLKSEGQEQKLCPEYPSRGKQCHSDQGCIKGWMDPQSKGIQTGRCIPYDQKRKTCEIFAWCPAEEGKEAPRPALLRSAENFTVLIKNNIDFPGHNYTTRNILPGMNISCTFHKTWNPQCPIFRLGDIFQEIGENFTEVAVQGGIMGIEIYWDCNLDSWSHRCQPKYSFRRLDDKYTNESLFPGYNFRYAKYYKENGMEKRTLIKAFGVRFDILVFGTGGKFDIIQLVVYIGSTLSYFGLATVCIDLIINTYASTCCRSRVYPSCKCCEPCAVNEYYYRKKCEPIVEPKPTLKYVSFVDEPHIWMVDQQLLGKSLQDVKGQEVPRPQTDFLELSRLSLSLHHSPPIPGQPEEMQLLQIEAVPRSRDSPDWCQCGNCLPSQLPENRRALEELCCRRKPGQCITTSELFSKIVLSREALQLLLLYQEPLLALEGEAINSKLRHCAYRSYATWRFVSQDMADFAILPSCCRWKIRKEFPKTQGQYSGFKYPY
Sequence of UniProt P48067 (whole entry, looked up): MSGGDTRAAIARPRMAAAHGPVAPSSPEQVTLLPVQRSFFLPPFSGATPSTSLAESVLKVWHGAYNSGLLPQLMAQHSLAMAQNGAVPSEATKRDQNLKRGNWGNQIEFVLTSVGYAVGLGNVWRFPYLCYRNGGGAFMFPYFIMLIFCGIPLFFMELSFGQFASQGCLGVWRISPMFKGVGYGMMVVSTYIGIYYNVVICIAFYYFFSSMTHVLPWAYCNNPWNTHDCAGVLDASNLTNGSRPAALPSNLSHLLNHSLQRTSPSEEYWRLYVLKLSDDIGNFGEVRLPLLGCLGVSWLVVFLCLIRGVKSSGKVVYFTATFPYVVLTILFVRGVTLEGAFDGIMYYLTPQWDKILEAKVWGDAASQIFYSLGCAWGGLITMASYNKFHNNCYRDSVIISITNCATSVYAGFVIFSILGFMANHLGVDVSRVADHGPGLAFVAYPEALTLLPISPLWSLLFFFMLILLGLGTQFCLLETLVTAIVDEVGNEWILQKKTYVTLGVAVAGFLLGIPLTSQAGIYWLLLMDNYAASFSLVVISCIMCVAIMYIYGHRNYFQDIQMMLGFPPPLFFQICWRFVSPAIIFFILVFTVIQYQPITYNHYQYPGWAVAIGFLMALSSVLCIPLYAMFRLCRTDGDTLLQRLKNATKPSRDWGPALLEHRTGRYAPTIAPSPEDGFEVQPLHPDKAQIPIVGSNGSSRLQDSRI

For `human GAPDH`, the co-IP enrichment was 10.8 (co-immunoprecipitation; human RBC membrane; unit not given, added: Band 3 peptide 1-56 bait; baseline: negative control).
For `GSGAGKETYY`, the binding intensity was -0.043 (human MAGI1-3/6 PDZ construct (MBP fusion); automated holdup; peptide, purified PDZ protein; concentration not given, unit not given; baseline: biotin control resin, higher = stronger binding).
With `PLLEWMPRL` the reporter activation was 0.00746% (Jurkat T cells expressing 1G4 TCR; NFAT-eGFP reporter, fluorescence microscopy; peptide; concentration not given, HLA-A*02:01 NY-ESO system).
With `11-deoxycorticosterone` the Kd was 4.31 µM (human CYP11B2; stopped-flow kinetic modelling; 4-state closed model, added: no adrenodoxin).
`GSGAGSETSV` gave a binding intensity of 0.747 (human SCRIB PDZ3-4 tandem (MBP fusion); automated holdup; peptide, purified PDZ protein; concentration not given, unit not given; baseline: biotin control resin, higher = stronger binding).
The reporter activation of `GLAQWMARA` is reported as 0.00407% (Jurkat T cells expressing 1G4 TCR; NFAT-eGFP reporter, fluorescence microscopy; peptide; concentration not given, HLA-A*02:01 NY-ESO system).
The magnesium of `caspofungin` is reported as 0.6 mmol/L (adult ICU patients, mITT, serum; dose not given, Follow-up).
The co-IP enrichment of `UBE2I` is reported as 0 (co-immunoprecipitation; human RBC membrane; DMTMM crosslinker, unit not given, added: Band 3 peptide 1-56 bait; baseline: negative control).
With `GSGAGQITKV` the binding intensity was 0.266 (human MAGI1-3/6 PDZ construct (MBP fusion); automated holdup; peptide, crude extract; concentration not given, uncorrected, unit not given; baseline: biotin control resin, higher = stronger binding).
`insulin degludec` — result for “apparent clearance CL/F”: 1.51 ± 0.2 L/h (human; subcutaneous, 0.4 IU/kg, 2 FC level, single dose, reference formulation).
`thimet oligopeptidase` has a co-IP enrichment of 0 (co-immunoprecipitation; human RBC membrane; DSSO crosslinker, unit not given, added: Band 3 peptide 1-56 bait; baseline: negative control).
`GSGAGIATEV` has a binding intensity of -0.0903 (human MAGI1-3/6 PDZ construct (MBP fusion); automated holdup; peptide, purified PDZ protein; concentration not given, unit not given; baseline: biotin control resin, higher = stronger binding).
`human LDL receptor` has a co-IP enrichment of 0 (co-immunoprecipitation; human RBC cytosol; DSSO crosslinker, unit not given, added: Band 3 peptide 1-56 bait; baseline: negative control).
For `cotadutide`, the plasma insulin was 6.2 ± 0.7 pg/mL (ob/ob mouse, AMLN diet NASH model; dose not given, terminal, non-fasted).
The binding intensity of `SVWLRKETRV` is reported as 0.404 (human MAGI1-3/6 PDZ construct (MBP fusion); automated holdup; peptide, crude extract; concentration not given, uncorrected, unit not given; baseline: biotin control resin, higher = stronger binding).
`CCT6A` gave a co-IP enrichment of 30.8 (co-immunoprecipitation; human RBC membrane; DMTMM crosslinker, unit not given, added: Band 3 peptide 1-56 bait; baseline: negative control).
`epoetin alfa` gave a mRNA level of 4.6 fold (UT7/EPO; RT-qPCR, item: KLF6; concentration not given, 90 min, normalized to HPRT1; baseline: vehicle).
`human serum albumin` gave a co-IP enrichment of 1.17 (co-immunoprecipitation; human RBC cytosol; unit not given, added: Band 3 peptide 1-56 bait; baseline: negative control).
For `GSGAGKESYV`, the binding intensity was 0.748 (human SCRIB PDZ3-4 tandem (MBP fusion); automated holdup; peptide, crude extract; concentration not given, uncorrected, unit not given; baseline: biotin control resin, higher = stronger binding).
With `tripeptidyl peptidase 2` the co-IP enrichment was 594 (co-immunoprecipitation; human RBC membrane; DSSO crosslinker, unit not given, added: Band 3 peptide 1-56 bait; baseline: negative control).
For `BzATP`, the normalized current was 0.0093 and 0.105 and 0.0793 (P2X purinoceptor 7 (P2rx7, Rattus norvegicus, UniProt Q64663, R125A); ion current, agonist, two-electrode voltage clamp; Xenopus oocytes; 0.1372 µM).
`PKRSFIESNV` has a binding intensity of 0.957 (human SCRIB PDZ3-4 tandem (MBP fusion); automated holdup; peptide, crude extract; concentration not given, uncorrected, unit not given; baseline: biotin control resin, higher = stronger binding).
`GLMQWNYRA` gave a reporter activation of 0.00716% (Jurkat T cells expressing 1G4 TCR; NFAT-eGFP reporter, fluorescence microscopy; peptide; concentration not given, HLA-A*02:01 NY-ESO system).
With `Teicoplanin` the recovery was 99.2% (QC solution; 2 days, 2–6 °C, low QC level).
For `Peginesatide`, the EC50 ratio was about 50 fold (UT7/EPO; MesoScale phosphorylation; mediators other than p38; baseline: compound over rHuEPO).
With `GLMQWVSQV` the reporter activation was 16% (Jurkat T cells expressing 1G4 TCR; NFAT-eGFP reporter, fluorescence microscopy; peptide; concentration not given, HLA-A*02:01 NY-ESO system).
The tissue uptake of `FNA / CGLSGLGVA-NH2 ([18F]FNA-labelled, C-amide)` is reported as 1.3 %ID/g (ex vivo gamma counting; peptide, healthy mice, small intestine; dose not given, 60 min).
Under “mean fluorescence intensity”, `ACEQNPIYWARYADWLFTTPLLLLDLALLVDADEGT` is recorded as 485 ± 126 a.u. (ex vivo fluorescence imaging; peptide, BALB/c mice, 4T1 tumour-bearing, kidney; intravenous, 5 nmol, 48 h post-injection; higher = more uptake).
`GLAQWIAGA` has a reporter activation of 0.19% (Jurkat T cells expressing 1G4 TCR; NFAT-eGFP reporter, flow cytometry; peptide; concentration not given, HLA-A*02:01 NY-ESO system).
For `QGRWDHETIV`, the binding intensity was -0.124 (human MAGI1-2/6 PDZ construct (MBP fusion); automated holdup; peptide, purified PDZ protein; concentration not given, unit not given; baseline: biotin control resin, higher = stronger binding).
`GLAQWVPLV` gave a reporter activation of 0.00834% (Jurkat T cells expressing 1G4 TCR; NFAT-eGFP reporter, fluorescence microscopy; peptide; concentration not given, HLA-A*02:01 NY-ESO system).
With `colistin` the MIC was over 64 µg/mL (Stenotrophomonas maltophilia; broth microdilution; clinical isolate RKI-No 729/15).
With `SLMQWVTQV` the reporter activation was 77.3% (Jurkat T cells expressing 1G4 TCR; NFAT-eGFP reporter, flow cytometry; peptide; concentration not given, HLA-A*02:01 NY-ESO system).
For `hemoglobin beta`, the co-IP enrichment was 2.9 (co-immunoprecipitation; human RBC cytosol; unit not given, added: Band 3 peptide 1-56 bait; baseline: negative control).
`ACEEQNPWARYLEWLFPTETLLLEL`: “mean fluorescence intensity” 810 ± 196 a.u. (ex vivo fluorescence imaging; peptide, BALB/c mice, 4T1 tumour-bearing, 4T1 tumour; intravenous, 5 nmol, 24 h post-injection; higher = more uptake).
`GLGQWLALA` gave a reporter activation of 0.0176% (Jurkat T cells expressing 1G4 TCR; NFAT-eGFP reporter, fluorescence microscopy; peptide; concentration not given, HLA-A*02:01 NY-ESO system).
Under “glycine uptake rate”, `methyl-β-cyclodextrin` is recorded as 22.5 a.u. and 27.5 a.u. and 28.6 a.u. and 28.3 a.u. (SLC6A9 (Homo sapiens, UniProt P48067); transport activity, [3H]glycine uptake; 3.5 mg/mL, 1 min, added: glycine 75 µM; higher = more transport).
For `MTVCNASQRQAHAQATAVSL`, the selectivity ratio was 6.3 ± 2.5 (HCC827; phage binding; peptide; baseline: targeting over control phage).
`LVHYTHCGSLGV` gave a body weight of 22.1 g and 22.9 g (Epstein-Barr virus; peptide, EBV-infected humanized B-NDG mice; 20 mg/kg, day 28).
`IMQLMPFGCLL` — result for “half-life of peptide-HLA complex”: 2.2 h (HLA class I histocompatibility antigen, A alpha chain, allele A*02:01 (Homo sapiens, UniProt P04439); complex stability, off-rate; peptide; 37 °C).

Repeated from above:
For `BzATP`, the normalized current was 0.0093 and 0.105 and 0.0793 (P2X purinoceptor 7 (P2rx7, Rattus norvegicus, UniProt Q64663, R125A); ion current, agonist, two-electrode voltage clamp; Xenopus oocytes; 0.1372 µM).
For `Peginesatide`, the EC50 ratio was about 50 fold (UT7/EPO; MesoScale phosphorylation; mediators other than p38; baseline: compound over rHuEPO).
Under “mean fluorescence intensity”, `ACEQNPIYWARYADWLFTTPLLLLDLALLVDADEGT` is recorded as 485 ± 126 a.u. (ex vivo fluorescence imaging; peptide, BALB/c mice, 4T1 tumour-bearing, kidney; intravenous, 5 nmol, 48 h post-injection; higher = more uptake).
